# Published values gathered from unrelated publications.
# Numbered parts are unrelated; each lists some results of a single study.

# Series 1
# Target: Transcriptional repressor CTCF (CTCF, Homo sapiens, UniProt P49711, residues 1-727, full length assumed)
# Sequence of UniProt P49711 (whole entry, looked up): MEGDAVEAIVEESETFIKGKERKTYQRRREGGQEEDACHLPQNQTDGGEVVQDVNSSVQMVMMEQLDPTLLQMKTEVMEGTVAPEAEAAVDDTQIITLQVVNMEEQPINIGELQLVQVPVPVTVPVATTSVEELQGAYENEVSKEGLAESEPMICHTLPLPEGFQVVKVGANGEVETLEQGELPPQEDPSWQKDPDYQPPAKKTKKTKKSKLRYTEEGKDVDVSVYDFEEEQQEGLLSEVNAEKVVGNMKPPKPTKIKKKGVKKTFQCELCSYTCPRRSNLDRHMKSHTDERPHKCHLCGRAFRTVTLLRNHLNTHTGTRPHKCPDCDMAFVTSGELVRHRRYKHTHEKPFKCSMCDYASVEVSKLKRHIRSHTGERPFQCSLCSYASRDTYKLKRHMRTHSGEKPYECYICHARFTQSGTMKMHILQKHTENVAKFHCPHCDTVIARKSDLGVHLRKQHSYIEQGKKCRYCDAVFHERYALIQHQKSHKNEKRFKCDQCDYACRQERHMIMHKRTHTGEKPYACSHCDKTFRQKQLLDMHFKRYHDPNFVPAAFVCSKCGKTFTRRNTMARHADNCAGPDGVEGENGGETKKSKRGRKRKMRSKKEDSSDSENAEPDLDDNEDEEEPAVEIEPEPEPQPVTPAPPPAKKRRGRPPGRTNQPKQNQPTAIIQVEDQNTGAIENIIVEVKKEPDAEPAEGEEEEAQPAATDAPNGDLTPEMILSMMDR
# Technique: protein-binding microarray
# Molecule type: double-stranded DNA, one strand shown
# Medium: in vitro
# Tested at: not given
# Notes: k-mer, scored over probes, only values ≥0.25
# Reading: higher = stronger binding
Sequence,E-score
GCGCTATA,0.386
GATAGGTA,0.26
TATTTCGA,0.295
AAGTGGCG,0.318
AGGCGCAA,0.272
ACGTTATA,0.393
AGGCGGCG,0.255
AGAATATG,0.263
GTATATTA,0.365
GCATAATA,0.333
TACTACTA,0.27
GCGCGCGA,0.307
TATATATA,0.41
AATATGAA,0.276
AAATAAGA,0.263
GCGCGCTA,0.338
ACACAATA,0.26
ATTAACTG,0.269
GGGGCGCA,0.417
CGATACTA,0.253
CGTAATCA,0.291
ATGAAACA,0.315
ATTTCCTG,0.262
CGCGCGTA,0.295
ATTAATCG,0.259

# Series 2
# Target: Ras GTPase-activating protein-binding protein 1, full length (G3BP1, Homo sapiens, UniProt Q13283)
# Sequence of UniProt Q13283 (whole entry, looked up): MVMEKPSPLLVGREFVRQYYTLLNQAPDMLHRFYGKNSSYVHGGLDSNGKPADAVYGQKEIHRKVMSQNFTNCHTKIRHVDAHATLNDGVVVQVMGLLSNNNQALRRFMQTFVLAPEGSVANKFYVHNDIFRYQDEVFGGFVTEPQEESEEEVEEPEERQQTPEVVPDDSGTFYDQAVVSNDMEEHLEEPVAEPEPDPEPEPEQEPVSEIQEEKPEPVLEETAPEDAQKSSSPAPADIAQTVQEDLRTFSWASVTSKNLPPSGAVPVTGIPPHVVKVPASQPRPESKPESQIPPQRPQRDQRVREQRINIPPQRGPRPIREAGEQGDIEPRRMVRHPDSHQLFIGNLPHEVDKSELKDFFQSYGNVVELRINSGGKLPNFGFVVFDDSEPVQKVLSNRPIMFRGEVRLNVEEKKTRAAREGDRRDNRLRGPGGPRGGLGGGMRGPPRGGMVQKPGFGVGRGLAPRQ
# Technique: RNA Bind-n-Seq
# Molecule type: RNA
# Medium: in vitro
# Tested at: 200 nM
# Notes: whole 134-nt RNA, ends assumed
# With: 150 mM LiCl
# Reference: input library
# Reading: higher = stronger binding
# Each molecule: 7-deaza-guanosine replaces G
Sequence,log2 enrichment
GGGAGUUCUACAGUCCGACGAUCUCCUCAAGUCCUGUGCUACACAUCGUAUGUACCGAAUCGGGGUGGUGGUGGGAAAGUAUUAUGUUACGCCGUUCGGAUCUGCACUUCCAGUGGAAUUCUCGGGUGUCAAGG,0.101
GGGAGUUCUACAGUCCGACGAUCACCAUGCAGGUGGGCAUCUUUGGGAAGUGGGGCAAGGGGGGGAUAGGGAGGGGGGUAACACCUUGGGAACAGGUGGUCCCAGGUCGUUUCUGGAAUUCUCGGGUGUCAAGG,0.288
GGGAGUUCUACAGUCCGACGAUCCUCAAGUCCUGUGCUACACAUCGUAUGUACCGAAUCGGGGCGGGGCGGGGCGGGAAAGUAUUAUGUUACGCCGUUCGGAUCUGCACUUCCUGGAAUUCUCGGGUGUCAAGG,-0.21
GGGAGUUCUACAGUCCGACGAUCAAGUCCUGUGCUACACAUCGUAUGUACCGAAUCGGAAAGGUUUUUUUGGUUUUUGGAAAGUAUUAUGUUACGCCGUUCGGAUCUGCACUUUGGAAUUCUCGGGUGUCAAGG,-2.51
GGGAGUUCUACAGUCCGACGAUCUGAUCAGCAAAGCCAAGAUGAGCCUUUGAGAAGCAGAAAAGUGUUUGUGGGGCGCUGUACAGAGGACAUGACUGAGGAUGAGCUGCGGGAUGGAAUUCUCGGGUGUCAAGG,-1.37
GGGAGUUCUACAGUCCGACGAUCCUGUGCUACACAUCGUAUGUACCGAAUCGGGAAAAAAAGGAAAAAAAGGGGAAAAAAAGGGGAAAGUAUUAUGUUACGCCGUUCGGAUCUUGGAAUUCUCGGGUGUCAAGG,0.212
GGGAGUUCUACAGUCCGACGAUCACCAUGCAGGUGGGCAUCUUUGGGAAAAGGGGCAAGGGGGGGAUAGGGAGGGGGGUAACACUUUGGGAACAGGUGGUCCCAGGUCGUUUCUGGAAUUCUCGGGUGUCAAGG,0.24
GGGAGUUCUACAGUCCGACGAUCUUCCUCAAGUCCUGUGCUACACAUCGUAUGUACCGAAUCGGGAGGAGGAGGAAAGUAUUAUGUUACGCCGUUCGGAUCUGCACUUCCAGCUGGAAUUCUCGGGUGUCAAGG,-1.26
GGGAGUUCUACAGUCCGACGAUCAGCAUGCAGGUGGGCAUCUUUGGGAAGUGGGGCAAGGGGGGGAUAGGGAGGGGGGUAACACUUUGGGAACAGGUGGUCCCAGGUCGUUUCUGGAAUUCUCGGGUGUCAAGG,0.0192
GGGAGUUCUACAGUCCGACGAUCUCAAGUCCUGUGCUACACAUCGUAUGUACCGAAUCGGGUUGGGGUUGGGUUGGGGAAAGUAUUAUGUUACGCCGUUCGGAUCUGCACUUCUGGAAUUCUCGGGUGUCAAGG,0.434
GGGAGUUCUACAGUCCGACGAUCCUCAAGUCCUGUGCUACACAUCGUAUGUACCGAAUCGGGGCCGGCCGGGCCGGAAAGUAUUAUGUUACGCCGUUCGGAUCUGCACUUCCAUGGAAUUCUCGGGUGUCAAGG,0.625

# Series 3
# Target: Histone acetyltransferase KAT6A, both winged helices, GST fusion (KAT6A, Homo sapiens, UniProt Q92794, residues 1-181)
# Technique: protein binding microarray
# Molecule type: double-stranded DNA, one strand shown
# Medium: in vitro
# Tested at: not given
# Notes: 8-mer, flanks averaged, mean of 2 arrays, mostly near background
# Reference: not given
# Reading: higher = stronger binding
# Target sequence (chain): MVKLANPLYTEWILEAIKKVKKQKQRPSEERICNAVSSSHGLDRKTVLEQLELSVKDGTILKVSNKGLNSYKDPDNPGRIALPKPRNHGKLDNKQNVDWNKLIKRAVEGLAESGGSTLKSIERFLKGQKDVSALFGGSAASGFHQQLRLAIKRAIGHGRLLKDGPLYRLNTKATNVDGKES
Sequence,E-score
GTATAAGA,-0.168
ACACTGTC,0.0351
AGTCGCCG,0.291
GTTTGCCA,0.0355
GGCGTGTA,0.0334
GCACGCAC,0.158
ACACTCCT,-0.0949
CAGGCTCG,0.2
CTAAACGA,0.00507
ATGGCTAC,-0.201
ACATTGCA,-0.0569
CAACGGCG,0.289
AGCGACAA,-0.0996
AATGGAGA,-0.0532
CAAGCCCC,-0.14
CAACTGTG,-0.00797
GCATCAGC,0.0298
AAACCGTC,0.199
ACCAGAGC,-0.116
AACGAATT,-0.229
GGTGAGAC,-0.0804
AGCCGAAT,0.122
AGTTACAG,-0.138
TCCAGACA,-0.2
CCGATCTC,0.0914

# Series 4
# Target: RNA binding protein fox-1 homolog 2, RRM domain, GST-SBP tag (RBFOX2, Homo sapiens, UniProt O43251-10, residues 100-194)
# Technique: RNA Bind-n-Seq
# Molecule type: RNA
# Medium: in vitro
# Tested at: 365 nM
# Notes: natural RNA segment, single round, ends assumed
# Reference: no-protein control
# Reading: higher = stronger binding
# Target sequence (chain): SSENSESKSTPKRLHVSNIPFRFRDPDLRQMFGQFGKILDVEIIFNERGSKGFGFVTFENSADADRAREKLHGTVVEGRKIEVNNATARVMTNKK
Sequence,RBNS enrichment (R)
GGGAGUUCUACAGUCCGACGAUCAUAAAAACAAAAAUGCUAAAUUAUAUCUGUGAAUUGCAGGUAUUGGGGAACAGUUUUAAGGGAAAUUUUGGGGGGAACAUUUUAGGUUUGUAUUUGGUAGUCUUAAUGUAUGGAAUUCUCGGGUGCCAA,2.14
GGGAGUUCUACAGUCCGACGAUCGUGUUAAACAAGAACAACAAAAAAAGGUCUCAUUGUGUAGCCCUAGCUGCUUAUAACUCGCUCUGUAGACCUGGCUGGUGUCAAACUGGAGAUCCUCCUUCCUCUGCCUCUGGAAUUCUCGGGUGCCAA,0.349
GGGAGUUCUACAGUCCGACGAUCGUUUUUCAGGUACUGGGAGCCGGGGGCUCACUGCUUGCACUGUGCUUAGGGUAGGGAUGGUAAAUAUCCUCCCUGCAUGGCUUUAUCCUCCCUCUCAUCCCAAAGCAGGUUGGAAUUCUCGGGUGCCAA,1.63
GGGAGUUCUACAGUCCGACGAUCAAGACACAGUGAGGGACAGCCCAGCUGCAAUAAAAGGGAUUUUCUAUGUCAGAAGCAGCAGGCUUUGCUUCAGCUUGAGUUGGAGCCGUGUGAGUCUCAGGCCAGGCCCUUGGAAUUCUCGGGUGCCAA,0.318
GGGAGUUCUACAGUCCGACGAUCGGCGACCUUGAAGCAGUUCUCGGUGUGUAGAGUCCACGUGACAGUCCCCACAGCCUCCCCAGAUAGCUGUGUGCCUGUGCGCUACUGCUGUGCCAUUUUCCCAACUUGGCUGGAAUUCUCGGGUGCCAA,0.5
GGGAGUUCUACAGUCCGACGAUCUUCGGUUGGCUUCUCAGUGGAACCCAACUGAAGUUGUCUAAUUGCCUCUUCUCAGAGUUCAGGAAAAACAGUAGUGCCACUUGAGACCUCGUAGAGGAGGUAUACGUGGCUGGAAUUCUCGGGUGCCAA,0.295
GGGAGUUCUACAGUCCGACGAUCCAGGGCUAGGAGGGAGGAGCCUGCCCUUUUAACAGAACCCCAGUCACAUGCGGCUCAAGUCACUCAGAGGCUGUUGCAUUUCAGGGCUAUGUUGGUCCUUUGUUUACCUCUGGAAUUCUCGGGUGCCAA,0.892
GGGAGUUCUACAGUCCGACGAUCUCCUCGUUUUACAUUCAUUCCUCUUUGGAUUUGCUUUGUGAUUUUGUUGUUGUUGAUGUUGUUGUUGUUGUGUAAUGUAACAGCACUUUAAAAGGGCGACAACUGACUCAUGGAAUUCUCGGGUGCCAA,0.319
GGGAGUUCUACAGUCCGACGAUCUAGCCGGUGGGUGAGGAGAUUCCCACCUUCCAUAGCCUCCAAACAUGUUCCCAAGGCCCCACUUUCAAGAAUCAGACAGCAGGAAGCCAUAGAUGCUGGCUGGGUUCCAGUGGAAUUCUCGGGUGCCAA,0.428
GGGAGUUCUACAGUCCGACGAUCAAGUUUUUGAAGCUGGGAGGAAAAAGAUGGAGUAGCUUGGAAAGAUUCCAGCACUGAGCCGUGGGCCGGUCAUGAGCCACGAUAAAAAAUGCCAGUUUGGCAAACUCAGCUGGAAUUCUCGGGUGCCAA,1.9
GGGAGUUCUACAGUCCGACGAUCGAUGAAUCUUGCGUUUUUUACAAAUUGGAGCAGGGACAGAUCAUAGAUUUCUGAUUUUAUGUAAAAUUUUGCCUAAUACAUUAAAGCAGUCACUUUUCCUGUGCUGUUUCUGGAAUUCUCGGGUGCCAA,0.569
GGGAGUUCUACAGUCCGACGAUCACCCAGCCUGGGACUUCCCUGGAACUGAGGGAUGCAUAGCUGUCUGGGGAAGCACUGACGGCCACUCACUCACCCUGUGCUGCUGCAAGUUUGACAGAACCACAUCACAUUGGAAUUCUCGGGUGCCAA,0.938

# For quick reference, copied from above (series 4):
Sequence,RBNS enrichment (R)
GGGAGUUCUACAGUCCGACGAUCUCCUCGUUUUACAUUCAUUCCUCUUUGGAUUUGCUUUGUGAUUUUGUUGUUGUUGAUGUUGUUGUUGUUGUGUAAUGUAACAGCACUUUAAAAGGGCGACAACUGACUCAUGGAAUUCUCGGGUGCCAA,0.319
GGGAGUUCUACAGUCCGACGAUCGGCGACCUUGAAGCAGUUCUCGGUGUGUAGAGUCCACGUGACAGUCCCCACAGCCUCCCCAGAUAGCUGUGUGCCUGUGCGCUACUGCUGUGCCAUUUUCCCAACUUGGCUGGAAUUCUCGGGUGCCAA,0.5
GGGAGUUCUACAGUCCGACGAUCGAUGAAUCUUGCGUUUUUUACAAAUUGGAGCAGGGACAGAUCAUAGAUUUCUGAUUUUAUGUAAAAUUUUGCCUAAUACAUUAAAGCAGUCACUUUUCCUGUGCUGUUUCUGGAAUUCUCGGGUGCCAA,0.569
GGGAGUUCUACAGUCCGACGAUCACCCAGCCUGGGACUUCCCUGGAACUGAGGGAUGCAUAGCUGUCUGGGGAAGCACUGACGGCCACUCACUCACCCUGUGCUGCUGCAAGUUUGACAGAACCACAUCACAUUGGAAUUCUCGGGUGCCAA,0.938
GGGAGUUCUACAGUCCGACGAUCGUUUUUCAGGUACUGGGAGCCGGGGGCUCACUGCUUGCACUGUGCUUAGGGUAGGGAUGGUAAAUAUCCUCCCUGCAUGGCUUUAUCCUCCCUCUCAUCCCAAAGCAGGUUGGAAUUCUCGGGUGCCAA,1.63
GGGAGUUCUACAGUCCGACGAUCAAGACACAGUGAGGGACAGCCCAGCUGCAAUAAAAGGGAUUUUCUAUGUCAGAAGCAGCAGGCUUUGCUUCAGCUUGAGUUGGAGCCGUGUGAGUCUCAGGCCAGGCCCUUGGAAUUCUCGGGUGCCAA,0.318
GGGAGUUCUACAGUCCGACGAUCGUGUUAAACAAGAACAACAAAAAAAGGUCUCAUUGUGUAGCCCUAGCUGCUUAUAACUCGCUCUGUAGACCUGGCUGGUGUCAAACUGGAGAUCCUCCUUCCUCUGCCUCUGGAAUUCUCGGGUGCCAA,0.349
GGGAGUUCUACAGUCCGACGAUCAAGUUUUUGAAGCUGGGAGGAAAAAGAUGGAGUAGCUUGGAAAGAUUCCAGCACUGAGCCGUGGGCCGGUCAUGAGCCACGAUAAAAAAUGCCAGUUUGGCAAACUCAGCUGGAAUUCUCGGGUGCCAA,1.9
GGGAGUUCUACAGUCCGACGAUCUUCGGUUGGCUUCUCAGUGGAACCCAACUGAAGUUGUCUAAUUGCCUCUUCUCAGAGUUCAGGAAAAACAGUAGUGCCACUUGAGACCUCGUAGAGGAGGUAUACGUGGCUGGAAUUCUCGGGUGCCAA,0.295
